Measurements pooled from the literature.
Each numbered part is a random draw from the data of one study; scales do not carry over between parts.
Chain of UniProt P11362 (whole entry, looked up): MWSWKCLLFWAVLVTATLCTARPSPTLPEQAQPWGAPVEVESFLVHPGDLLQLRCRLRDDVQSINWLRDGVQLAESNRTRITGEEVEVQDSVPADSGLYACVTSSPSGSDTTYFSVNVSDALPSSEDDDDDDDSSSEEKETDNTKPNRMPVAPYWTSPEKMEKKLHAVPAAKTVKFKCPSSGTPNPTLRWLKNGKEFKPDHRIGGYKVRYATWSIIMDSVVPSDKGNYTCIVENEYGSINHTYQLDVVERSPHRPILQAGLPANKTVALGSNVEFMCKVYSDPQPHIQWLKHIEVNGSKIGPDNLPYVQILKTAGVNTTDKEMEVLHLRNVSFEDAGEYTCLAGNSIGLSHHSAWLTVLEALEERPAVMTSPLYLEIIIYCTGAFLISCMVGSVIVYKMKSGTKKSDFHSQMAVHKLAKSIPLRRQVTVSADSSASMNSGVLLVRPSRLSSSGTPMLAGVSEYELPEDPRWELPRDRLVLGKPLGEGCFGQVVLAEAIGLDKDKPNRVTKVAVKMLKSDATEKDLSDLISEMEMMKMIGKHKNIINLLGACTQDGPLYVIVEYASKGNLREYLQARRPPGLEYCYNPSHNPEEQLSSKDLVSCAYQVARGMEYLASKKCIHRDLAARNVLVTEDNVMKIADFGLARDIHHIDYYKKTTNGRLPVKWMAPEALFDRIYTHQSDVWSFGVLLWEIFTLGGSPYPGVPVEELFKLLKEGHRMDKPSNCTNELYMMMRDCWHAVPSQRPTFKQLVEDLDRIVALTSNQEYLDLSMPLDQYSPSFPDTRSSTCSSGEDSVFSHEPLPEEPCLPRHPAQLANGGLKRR
Chain of UniProt P07550 (whole entry, looked up): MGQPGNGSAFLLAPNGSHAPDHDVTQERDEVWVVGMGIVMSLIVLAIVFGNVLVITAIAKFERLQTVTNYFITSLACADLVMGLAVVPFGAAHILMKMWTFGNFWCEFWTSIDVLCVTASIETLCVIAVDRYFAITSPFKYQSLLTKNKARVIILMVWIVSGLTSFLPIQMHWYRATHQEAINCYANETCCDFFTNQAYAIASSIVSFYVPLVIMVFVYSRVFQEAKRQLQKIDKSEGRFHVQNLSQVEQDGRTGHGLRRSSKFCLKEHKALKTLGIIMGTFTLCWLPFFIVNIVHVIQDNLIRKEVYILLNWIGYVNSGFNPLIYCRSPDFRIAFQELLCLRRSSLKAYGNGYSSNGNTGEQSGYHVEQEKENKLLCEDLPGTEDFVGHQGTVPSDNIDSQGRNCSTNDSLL
Chain of UniProt P35368 (whole entry, looked up): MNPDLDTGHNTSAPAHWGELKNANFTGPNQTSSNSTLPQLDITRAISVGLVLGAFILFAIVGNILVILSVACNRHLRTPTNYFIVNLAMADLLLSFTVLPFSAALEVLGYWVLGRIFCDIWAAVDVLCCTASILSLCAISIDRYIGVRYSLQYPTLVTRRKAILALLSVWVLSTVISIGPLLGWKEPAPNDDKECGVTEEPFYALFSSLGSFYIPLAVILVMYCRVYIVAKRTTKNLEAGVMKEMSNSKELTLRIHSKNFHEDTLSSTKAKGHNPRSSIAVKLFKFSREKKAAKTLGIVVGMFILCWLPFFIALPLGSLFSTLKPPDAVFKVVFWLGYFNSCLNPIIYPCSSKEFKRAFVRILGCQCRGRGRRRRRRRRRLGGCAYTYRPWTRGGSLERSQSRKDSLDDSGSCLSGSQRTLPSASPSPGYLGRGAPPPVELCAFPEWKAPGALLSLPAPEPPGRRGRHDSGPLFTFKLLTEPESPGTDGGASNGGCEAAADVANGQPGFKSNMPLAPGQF
Chain of UniProt P30291 (whole entry, looked up): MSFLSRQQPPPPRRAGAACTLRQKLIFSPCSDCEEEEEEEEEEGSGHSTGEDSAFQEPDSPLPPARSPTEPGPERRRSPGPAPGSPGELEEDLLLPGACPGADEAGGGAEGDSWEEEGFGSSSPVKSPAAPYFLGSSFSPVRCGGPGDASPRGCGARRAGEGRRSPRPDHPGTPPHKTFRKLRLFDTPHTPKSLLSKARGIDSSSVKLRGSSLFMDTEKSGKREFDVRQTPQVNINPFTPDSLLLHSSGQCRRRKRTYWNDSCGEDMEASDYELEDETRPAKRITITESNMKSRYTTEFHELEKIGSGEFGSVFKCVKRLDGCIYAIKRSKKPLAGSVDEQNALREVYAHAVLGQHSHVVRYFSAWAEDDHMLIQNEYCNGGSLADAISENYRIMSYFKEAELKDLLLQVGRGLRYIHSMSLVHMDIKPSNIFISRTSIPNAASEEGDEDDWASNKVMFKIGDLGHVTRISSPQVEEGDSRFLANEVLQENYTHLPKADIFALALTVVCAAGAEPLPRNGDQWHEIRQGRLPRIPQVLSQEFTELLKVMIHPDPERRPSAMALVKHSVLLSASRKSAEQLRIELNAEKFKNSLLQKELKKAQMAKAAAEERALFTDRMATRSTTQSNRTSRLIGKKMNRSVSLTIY
Chain of UniProt Q9BXA5 (whole entry, looked up): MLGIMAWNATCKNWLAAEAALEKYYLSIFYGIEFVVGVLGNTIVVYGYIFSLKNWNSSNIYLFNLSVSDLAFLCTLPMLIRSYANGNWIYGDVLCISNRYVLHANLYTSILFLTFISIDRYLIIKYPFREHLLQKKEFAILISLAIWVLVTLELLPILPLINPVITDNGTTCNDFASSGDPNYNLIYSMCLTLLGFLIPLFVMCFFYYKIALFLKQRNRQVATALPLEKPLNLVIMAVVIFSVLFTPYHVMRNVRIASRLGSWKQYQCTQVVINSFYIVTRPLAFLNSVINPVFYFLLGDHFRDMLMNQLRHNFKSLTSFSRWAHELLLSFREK
Chain of UniProt Q12866 (whole entry, looked up): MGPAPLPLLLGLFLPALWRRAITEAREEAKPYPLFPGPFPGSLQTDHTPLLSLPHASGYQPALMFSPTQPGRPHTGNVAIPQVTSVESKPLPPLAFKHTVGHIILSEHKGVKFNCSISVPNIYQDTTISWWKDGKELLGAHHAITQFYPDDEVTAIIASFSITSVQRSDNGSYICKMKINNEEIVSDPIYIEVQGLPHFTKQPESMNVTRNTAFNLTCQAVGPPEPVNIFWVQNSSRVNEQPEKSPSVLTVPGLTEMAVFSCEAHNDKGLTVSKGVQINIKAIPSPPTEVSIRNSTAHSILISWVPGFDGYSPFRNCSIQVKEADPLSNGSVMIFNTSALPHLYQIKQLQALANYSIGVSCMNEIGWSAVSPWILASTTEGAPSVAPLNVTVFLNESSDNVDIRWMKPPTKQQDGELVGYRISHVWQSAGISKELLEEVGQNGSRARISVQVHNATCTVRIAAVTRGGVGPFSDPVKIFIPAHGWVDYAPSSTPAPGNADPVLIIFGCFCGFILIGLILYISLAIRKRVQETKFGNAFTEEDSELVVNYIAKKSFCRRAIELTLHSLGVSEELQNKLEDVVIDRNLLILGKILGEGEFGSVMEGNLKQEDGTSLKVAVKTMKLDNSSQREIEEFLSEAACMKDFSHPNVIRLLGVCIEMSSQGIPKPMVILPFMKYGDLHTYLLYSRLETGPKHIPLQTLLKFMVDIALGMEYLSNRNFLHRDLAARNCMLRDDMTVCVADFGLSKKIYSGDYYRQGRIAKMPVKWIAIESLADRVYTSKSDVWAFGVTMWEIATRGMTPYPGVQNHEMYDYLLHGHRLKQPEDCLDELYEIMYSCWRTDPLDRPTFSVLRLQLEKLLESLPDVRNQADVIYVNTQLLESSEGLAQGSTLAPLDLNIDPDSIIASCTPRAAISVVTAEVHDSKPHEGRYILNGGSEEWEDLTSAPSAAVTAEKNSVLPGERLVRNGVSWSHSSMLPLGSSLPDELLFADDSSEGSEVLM
Chain of UniProt P08588 (whole entry, looked up): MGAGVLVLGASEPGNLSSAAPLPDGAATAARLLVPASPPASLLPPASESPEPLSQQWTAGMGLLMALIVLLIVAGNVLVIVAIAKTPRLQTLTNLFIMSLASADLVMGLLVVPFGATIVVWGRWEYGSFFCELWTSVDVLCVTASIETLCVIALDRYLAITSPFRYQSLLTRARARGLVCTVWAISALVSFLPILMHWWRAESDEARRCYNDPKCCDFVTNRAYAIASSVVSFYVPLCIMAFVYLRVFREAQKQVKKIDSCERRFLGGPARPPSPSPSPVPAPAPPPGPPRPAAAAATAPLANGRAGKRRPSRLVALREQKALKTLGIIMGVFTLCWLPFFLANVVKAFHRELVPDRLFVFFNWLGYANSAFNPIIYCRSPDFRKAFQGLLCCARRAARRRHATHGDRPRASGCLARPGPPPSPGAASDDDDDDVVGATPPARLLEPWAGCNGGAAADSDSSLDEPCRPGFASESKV
Chain of UniProt P25100 (whole entry, looked up): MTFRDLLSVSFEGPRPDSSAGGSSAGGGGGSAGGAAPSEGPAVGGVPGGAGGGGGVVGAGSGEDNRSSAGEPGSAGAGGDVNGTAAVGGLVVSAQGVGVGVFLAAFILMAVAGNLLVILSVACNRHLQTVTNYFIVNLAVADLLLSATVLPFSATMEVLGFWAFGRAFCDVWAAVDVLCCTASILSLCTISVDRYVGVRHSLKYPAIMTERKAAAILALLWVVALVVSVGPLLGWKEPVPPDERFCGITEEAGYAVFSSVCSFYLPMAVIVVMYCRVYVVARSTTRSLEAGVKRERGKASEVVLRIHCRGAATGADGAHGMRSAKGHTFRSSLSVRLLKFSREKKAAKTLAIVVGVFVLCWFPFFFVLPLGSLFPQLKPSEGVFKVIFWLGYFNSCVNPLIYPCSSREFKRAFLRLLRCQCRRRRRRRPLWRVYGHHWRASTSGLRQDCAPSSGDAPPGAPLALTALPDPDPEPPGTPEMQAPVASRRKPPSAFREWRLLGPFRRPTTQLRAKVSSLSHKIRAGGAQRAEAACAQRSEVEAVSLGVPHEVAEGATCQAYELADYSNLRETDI

Sample 1
SMILES: N=C(N)NC(=O)c1cnn(-c2cccc3ncccc23)c1C1CC1
Read-out: β-arrestin recruitment
Mode: agonist
Method: PRESTO-Tango
Tested at: 10 µM
Relative to: untreated
Measurement: fold over basal
target = G protein-coupled receptor 88 (Homo sapiens, UniProt Q9GZN0); result = 1.27
target = Prokineticin receptor 2 (PROKR2, Homo sapiens, UniProt Q8NFJ6); result = 0.76
target = Proteinase-activated receptor 1 (F2R, Homo sapiens, UniProt P25116); result = 1.38
target = Succinate receptor 1 (SUCNR1, Homo sapiens, UniProt Q9BXA5); result = 1.42 fold
target = Mas-related G-protein coupled receptor member G (MRGPRG, Homo sapiens, UniProt Q86SM5); result = 1.43

Sample 2
Structure (SMILES): CS(=O)(=O)c1cc(C2(NC(=O)c3cncc4c3cnn4-c3ccc(F)cc3)CC2)ccn1
Read-out: cell-free assay
Tested at: 10 µM
Measurement: inhibition
target = D(1A) dopamine receptor (DRD1, Homo sapiens, UniProt P21728); result = -12.6%
target = Alpha-2B adrenergic receptor (ADRA2B, Homo sapiens, UniProt P18089); result = 13.2%
target = Beta-2 adrenergic receptor (ADRB2, Homo sapiens, UniProt P07550); result = -7.76%
target = Alpha-1D adrenergic receptor (ADRA1D, Homo sapiens, UniProt P25100); result = -7.67%
target = Muscarinic acetylcholine receptor M4 (CHRM4, Homo sapiens, UniProt P08173); result = 13.3%
target = Alpha-2C adrenergic receptor (ADRA2C, Homo sapiens, UniProt P18825); result = -6.8%
target = Alpha-1B adrenergic receptor (ADRA1B, Homo sapiens, UniProt P35368); result = -10.2%
target = Beta-1 adrenergic receptor (ADRB1, Homo sapiens, UniProt P08588); result = -30.3%
target = 5-hydroxytryptamine receptor 6 (HTR6, Homo sapiens, UniProt P50406); result = -21.8%
target = Alpha-2A adrenergic receptor (ADRA2A, Homo sapiens, UniProt P08913); result = -2.44%

Sample 3
Cell line: A-375
Tested at: 100 µM
Time: 18 h
Measurement: viability
Structure (SMILES) = C/C=C1\NC(=O)[C@H]2CSSCC/C=C/[C@H](CC(=O)N[C@H](C(C)C)C(=O)N2)OC(=O)[C@H](C(C)C)NC1=O; result = 26.5%
Structure (SMILES) = C[C@H](CCC(=O)O)[C@H]1CC[C@H]2[C@@H]3[C@@H](O)C[C@@H]4C[C@H](O)CC[C@]4(C)[C@H]3CC[C@]12C; result = 92.2%
Structure (SMILES) = CC(CCc1ccccc1)NCC(O)c1ccc(O)c(C(N)=O)c1 (stereo not shown); result = 100%
Structure (SMILES) = N=C(N)N; result = 93%
Structure (SMILES) = Cc1cn([C@@H]2C[C@@H](O)[C@H](CO)O2)c(=O)[nH]c1=O; result = 110%

Sample 4
SMILES: CCN(CC)CCCCN1c2ccccc2Oc2ccc(Cl)cc21
Read-out: enzyme activity
Mode: inhibitor
Tested at: 0.5 µM
Relative to: control
Measurement: remaining activity
target = Serine/threonine-protein kinase Nek1 (NEK1, Homo sapiens, UniProt Q96PY6); result = 101%
target = Rhodopsin kinase GRK7 (GRK7, Homo sapiens, UniProt Q8WTQ7); result = 96.2%
target = Tyrosine-protein kinase Mer (MERTK, Homo sapiens, UniProt Q12866); result = 95.5%
target = Casein kinase I isoform gamma-2 (CSNK1G2, Homo sapiens, UniProt P78368); result = 103%
target = Wee1-like protein kinase (WEE1, Homo sapiens, UniProt P30291); result = 92.7%
target = Casein kinase I isoform gamma-3 (CSNK1G3, Homo sapiens, UniProt Q9Y6M4); result = 78.3%
target = MAP kinase-activated protein kinase 2 (MAPKAPK2, Homo sapiens, UniProt P49137); result = 97.2%
target = Fibroblast growth factor receptor 1 (FGFR1, Homo sapiens, UniProt P11362); result = 105%
target = Mitogen-activated protein kinase kinase kinase 5 (MAP3K5, Homo sapiens, UniProt Q99683); result = 106%
target = Fibroblast growth factor receptor 3 (FGFR3, Homo sapiens, UniProt P22607); result = 91.8%
target = Serine/threonine-protein kinase TAO2 (TAOK2, Homo sapiens, UniProt Q9UL54); result = 95.3%
target = Dual specificity mitogen-activated protein kinase kinase 2 (MAP2K2, Homo sapiens, UniProt P36507); result = 88.4%
target = Ephrin type-A receptor 3 (EPHA3, Homo sapiens, UniProt P29320); result = 101%
target = Tyrosine-protein kinase Lck (LCK, Homo sapiens, UniProt P06239); result = 94.6%

A few entries again (sample 3):
Structure (SMILES) = C/C=C1\NC(=O)[C@H]2CSSCC/C=C/[C@H](CC(=O)N[C@H](C(C)C)C(=O)N2)OC(=O)[C@H](C(C)C)NC1=O; result = 26.5%
Structure (SMILES) = N=C(N)N; result = 93%
Structure (SMILES) = Cc1cn([C@@H]2C[C@@H](O)[C@H](CO)O2)c(=O)[nH]c1=O; result = 110%
Structure (SMILES) = C[C@H](CCC(=O)O)[C@H]1CC[C@H]2[C@@H]3[C@@H](O)C[C@@H]4C[C@H](O)CC[C@]4(C)[C@H]3CC[C@]12C; result = 92.2%
